Assay results of several laboratories.
Each line is one published result; not all experiments were run side by side. “And” joins repeats or separate records; there may be more than shown. ± marks the error that the study gave.

SMILES	test	system	conditions	scale	measurement	result
Cc1cc(O)c(C=O)c2c1C(=O)Oc1c(CO)c(O)c3c(c1O2)C(O)OC3=O (stereo not shown)		rat, male, streptozotocin-induced diabetes, cauda epididymis	10 mg/kg, 9 weeks		sperm viability	79.8 ± 2.4%
CCCC[C@H](NC(=O)[C@@H](NC(=O)[C@H](CC(=O)O)NC(=O)[C@H](CCC(N)=O)NC(=O)[C@H](CC(C)C)NC(=O)[C@H](CC(C)C)NC(=O)[C@H](CCCN)NC(=O)[C@H](CCCNC(=N)N)NC(=O)[C@H](C)NC(=O)[C@H](CO)NC(=O)[C@H](CC(C)C)NC(=O)[C@H](CCC(N)=O)NC(=O)[C@H](CC)NC(=O)[C@H](CC(C)C)NC(=O)[C@@H](NC(=O)[C@H](CCCN)NC(=O)[C@H](CCCNC(=N)N)NC(=O)[C@H](Cc1ccc(O)cc1)NC(=O)[C@H](CO)NC(=O)[C@H](CCC(N)=O)NC(=O)[C@@H](NC(=O)[C@H](Cc1ccccc1)NC(=O)[C@@H](NC(=O)[C@H](C)NC(=O)[C@H](CC(=O)O)NC(=O)[C@@H](C)NC(=O)[C@H](Cc1ccc(O)cc1)NC)[C@@H](C)CC)[C@@H](C)O)C(C)C)[C@@H](C)CC)C(=O)N[C@@H](CC(=O)O)C(=O)N[C@@H](CCCNC(=N)N)C(=O)NCCCCC(N)=O	GH release	rat, male, serum	subcutaneous, 3 µg/kg, 30 min	relative to: reference GHRH agonist JI-38	relative potency	2.71 and 2.7
C=C(c1ncc(C(=O)O)cn1)c1cc2c(cc1C)C(C)(C)CCC2(C)C	RNA sequencing, measured: Angptl4 mRNA	rat, brain	dose not given, 24 h, single dose	relative to: vehicle	log2 fold change	-1.11
COc1cc2c(cc1OC)-c1cc3ccc(OC)c(OC)c3c[n+]1CC2		rat, STZ-induced diabetic, serum	oral, 12 mg/kg, day 28		total cholesterol	101 ± 4.32 mg/dL
CCCC[C@H](NC(=O)[C@@H](NC(=O)[C@H](CC(=O)O)NC(=O)[C@H](CCC(N)=O)NC(=O)[C@H](CC(C)C)NC(=O)[C@H](CC(C)C)NC(=O)[C@H](CCCN)NC(=O)[C@H](CCCNC(=N)N)NC(=O)[C@H](C)NC(=O)[C@H](CO)NC(=O)[C@H](CC(C)C)NC(=O)[C@H](CCC(N)=O)NC(=O)[C@H](CC)NC(=O)[C@H](CC(C)C)NC(=O)[C@@H](NC(=O)[C@H](CCCN)NC(=O)[C@H](CCCNC(=N)N)NC(=O)[C@H](Cc1ccc(O)cc1)NC(=O)[C@H](CO)NC(=O)[C@H](CCC(N)=O)NC(=O)[C@@H](NC(=O)[C@H](Cc1ccccc1)NC(=O)[C@@H](NC(=O)[C@H](C)NC(=O)[C@H](CC(=O)O)NC(=O)[C@H](C)NC(=O)CCc1ccc(O)cc1)[C@@H](C)CC)[C@@H](C)O)C(C)C)[C@@H](C)CC)C(=O)N[C@@H](CC(=O)O)C(=O)N[C@@H](CCCNC(=N)N)C(=O)NC	GH release	male rat, serum	subcutaneous, dose not given, 15 min	relative to: GHRH(1-29)NH2	relative potency	69.6
Nc1ccc(-c2nnc(S)o2)cc1	nitric oxide scavenging				IC50	44.1 ± 3 µM
O=C(N[C@@H](Cc1ccc(OCCCCC2CCNCC2)cc1)C(=O)O)c1nc2ccccc2o1	platelet aggregation, inhibitor, impedance aggregometry	human donors, diluted whole blood	5 min preincubation, 37 °C, with: ADP 20 µM		IC50	0.0917 ± 0.0096 µM
CCCC[C@H](NC(=O)[C@@H](NC(=O)[C@H](CC(=O)O)NC(=O)[C@H](CCC(N)=O)NC(=O)[C@H](CC(C)C)NC(=O)[C@H](CC(C)C)NC(=O)[C@H](CCCN)NC(=O)[C@H](CCCNC(=N)N)NC(=O)[C@H](C)NC(=O)[C@H](CO)NC(=O)[C@H](CC(C)C)NC(=O)[C@H](CCC(N)=O)NC(=O)[C@H](CC)NC(=O)[C@H](CC(C)C)NC(=O)[C@@H](NC(=O)[C@H](CCCN)NC(=O)[C@H](CCCNC(=N)N)NC(=O)[C@H](Cc1ccc(O)cc1)NC(=O)[C@H](CO)NC(=O)[C@H](CCC(N)=O)NC(=O)[C@@H](NC(=O)[C@H](Cc1ccccc1)NC(=O)[C@@H](NC(=O)[C@H](C)NC(=O)[C@H](CC(=O)O)NC(=O)[C@H](C)NC(=O)CCc1ccc(O)cc1)[C@@H](C)CC)[C@@H](C)O)C(C)C)[C@@H](C)CC)C(=O)N[C@@H](CC(=O)O)C(=O)N[C@@H](CCCNC(=N)N)C(=O)NCCCCC(N)=O	GH release	rat, male, serum	subcutaneous, dose not given, 15 and 30 min	relative to: reference GHRH agonist JI-38	relative potency	1 to 4 fold
O=C1/C(=C/c2ccccc2)Oc2c1c(O)cc(O)c2-c1ccc(O)c(O)c1	ABTS scavenging, absorbance				EC50	1.05 mM
COc1ccc2c(c1)c(CC(=O)OCC(=O)c1ccccc1)c(C)n2C(=O)c1ccc(Cl)cc1	hot plate test	BALB/c mice	100 mg/kg, 120 min		latency of nociceptive response	16.4 ± 0.56 s
O=c1cc(-c2ccc(O)cc2)oc2cc(O)c(-c3ccc(O)c(O)c3)c(O)c12	ABTS scavenging, absorbance				EC50	1.05 mM
CCC1CC2C(C)=CC3C(=O)CCCC3C=CC(C)=CC2C(=O)O1 (stereo not shown)	western blot	PS19 mouse (MAPT P301S), hippocampus	oral, 30 mg/kg, 3 weeks	relative to: vehicle	PSD95 level increase	7.6%
CCCC[C@H](NC(=O)[C@@H](NC(=O)[C@H](CC(=O)O)NC(=O)[C@H](CCC(N)=O)NC(=O)[C@H](CC(C)C)NC(=O)[C@H](CC(C)C)NC(=O)[C@H](CCCN)NC(=O)[C@H](CCCNC(=N)N)NC(=O)[C@H](C)NC(=O)[C@H](CO)NC(=O)[C@H](CC(C)C)NC(=O)[C@H](CCC(N)=O)NC(=O)[C@H](CC)NC(=O)[C@H](CC(C)C)NC(=O)[C@@H](NC(=O)[C@H](CCCN)NC(=O)[C@H](CCCNC(=N)N)NC(=O)[C@H](Cc1ccc(O)cc1)NC(=O)[C@H](CO)NC(=O)[C@H](CCC(N)=O)NC(=O)[C@@H](NC(=O)[C@H](Cc1ccccc1)NC(=O)[C@@H](NC(=O)[C@H](C)NC(=O)[C@H](CC(=O)O)NC(=O)[C@H](C)NC(=O)[C@H](Cc1ccc(O)cc1)NC)[C@@H](C)CC)[C@@H](C)O)C(C)C)[C@@H](C)CC)C(=O)N[C@@H](CC(=O)O)C(=O)N[C@@H](CCCNC(=N)N)C(=O)NC	GH release	male rat, serum	subcutaneous, dose not given, 15 min	relative to: GHRH(1-29)NH2	relative potency	170
O=C1/C(=C/c2ccccc2)Oc2c1c(O)cc1oc3cc(O)c(O)cc3c21	ABTS scavenging, absorbance				EC50	2.99 mM
C[C@@H](O)[C@@H]1NC(=O)[C@H](CCCCN)NC(=O)[C@@H](Cc2ccc(NC(N)=O)cc2)NC(=O)[C@H](Cc2ccc(NC(=O)[C@@H]3CC(=O)NC(=O)N3)cc2)NC(=O)[C@H](NC(=O)[C@H](Cc2ccc(Cl)cc2)NC(=O)CN2CCN(CC(=O)O)CCN(CC(=O)O)CCN(CC(=O)O)CC2)CSSC[C@@H](C(=O)N[C@H](Cc2ccc(O)cc2)C(N)=O)NC1=O [gallium-68 labelled]	PET/CT	human neuroendocrine tumour patients, lung lesions	60 min		SUVmax	17
CCCC[C@H](NC(=O)[C@@H](NC(=O)[C@H](CC(=O)O)NC(=O)[C@H](CCC(N)=O)NC(=O)[C@H](CC(C)C)NC(=O)[C@H](CC(C)C)NC(=O)[C@H](CCCN)NC(=O)[C@H](CCCNC(=N)N)NC(=O)[C@H](C)NC(=O)[C@H](CO)NC(=O)[C@H](CC(C)C)NC(=O)[C@H](CCC(N)=O)NC(=O)[C@H](CC)NC(=O)[C@H](CC(C)C)NC(=O)[C@@H](NC(=O)[C@H](CCCN)NC(=O)[C@H](CCCNC(=N)N)NC(=O)[C@H](Cc1ccc(O)cc1)NC(=O)[C@H](CO)NC(=O)[C@H](CCC(N)=O)NC(=O)[C@@H](NC(=O)[C@H](Cc1ccccc1)NC(=O)[C@@H](NC(=O)[C@H](C)NC(=O)[C@H](CC(=O)O)NC(=O)[C@H](C)NC(=O)[C@H](Cc1ccc(O)cc1)NC)[C@@H](C)CC)[C@@H](C)O)C(C)C)[C@@H](C)CC)C(=O)N[C@@H](CC(=O)O)C(=O)NCCCCNC(=N)N	GH release	rat, male, serum	intravenous, 1 µg/kg, 5 min	relative to: reference GHRH agonist JI-38	relative potency	1.17
CCC(=O)N1CCN(c2ccc(N(C)C(=O)C(C)(C)c3cc(C(F)(F)F)cc(C(F)(F)F)c3)c(-c3ccccc3C)c2)CC1	mechanical allodynia, antagonist, von Frey test	hNK1R-407 mice	intrathecal, 5 µL, 100 nM, with: capsaicin		duration of complete prevention	4 h
CCCC[C@H](NC(=O)[C@@H](NC(=O)[C@H](CC(=O)O)NC(=O)[C@H](CCC(N)=O)NC(=O)[C@H](CC(C)C)NC(=O)[C@H](CC(C)C)NC(=O)[C@H](CCCN)NC(=O)[C@H](CCCNC(=N)N)NC(=O)[C@H](C)NC(=O)[C@H](CO)NC(=O)[C@H](CC(C)C)NC(=O)[C@H](CCC(N)=O)NC(=O)[C@H](CC)NC(=O)[C@H](CC(C)C)NC(=O)[C@@H](NC(=O)[C@H](CCCN)NC(=O)[C@H](CCCNC(=N)N)NC(=O)[C@H](Cc1ccc(O)cc1)NC(=O)[C@H](CO)NC(=O)[C@H](CC(N)=O)NC(=O)[C@@H](NC(=O)[C@H](Cc1ccccc1)NC(=O)[C@@H](NC(=O)[C@H](C)NC(=O)[C@H](CC(=O)O)NC(=O)[C@@H](C)NC(=O)[C@H](Cc1ccc(O)cc1)NC)[C@@H](C)CC)[C@@H](C)O)C(C)C)[C@@H](C)CC)C(=O)N[C@@H](CC(=O)O)C(=O)NCCCCNC(=N)N	GH release	male rat, serum	subcutaneous, dose not given, 15 min	relative to: GHRH(1-29)NH2	relative potency	68.1
COc1ccc2c(c1)c(CC(=O)OCOC(C)=O)c(C)n2C(=O)c1ccc(Cl)cc1	hot plate test	BALB/c mice	75 mg/kg, 90 min		latency of nociceptive response	16.2 ± 1.4 s

Some of these lines once more:
SMILES	test	system	conditions	scale	measurement	result
Cc1cc(O)c(C=O)c2c1C(=O)Oc1c(CO)c(O)c3c(c1O2)C(O)OC3=O (stereo not shown)		rat, male, streptozotocin-induced diabetes, cauda epididymis	10 mg/kg, 9 weeks		sperm viability	79.8 ± 2.4%
CCCC[C@H](NC(=O)[C@@H](NC(=O)[C@H](CC(=O)O)NC(=O)[C@H](CCC(N)=O)NC(=O)[C@H](CC(C)C)NC(=O)[C@H](CC(C)C)NC(=O)[C@H](CCCN)NC(=O)[C@H](CCCNC(=N)N)NC(=O)[C@H](C)NC(=O)[C@H](CO)NC(=O)[C@H](CC(C)C)NC(=O)[C@H](CCC(N)=O)NC(=O)[C@H](CC)NC(=O)[C@H](CC(C)C)NC(=O)[C@@H](NC(=O)[C@H](CCCN)NC(=O)[C@H](CCCNC(=N)N)NC(=O)[C@H](Cc1ccc(O)cc1)NC(=O)[C@H](CO)NC(=O)[C@H](CCC(N)=O)NC(=O)[C@@H](NC(=O)[C@H](Cc1ccccc1)NC(=O)[C@@H](NC(=O)[C@H](C)NC(=O)[C@H](CC(=O)O)NC(=O)[C@@H](C)NC(=O)[C@H](Cc1ccc(O)cc1)NC)[C@@H](C)CC)[C@@H](C)O)C(C)C)[C@@H](C)CC)C(=O)N[C@@H](CC(=O)O)C(=O)N[C@@H](CCCNC(=N)N)C(=O)NCCCCC(N)=O	GH release	rat, male, serum	subcutaneous, 3 µg/kg, 30 min	relative to: reference GHRH agonist JI-38	relative potency	2.71 and 2.7
